Measured values of several laboratories.
Each line is one published result; not all experiments were run side by side. In brackets after ≈: the same amount, converted by molar mass. Bridge positions count the residues as written; N and C are the ends. Ends that are not written are not given here. * marks the point of attachment.
Organism: Staphylococcus aureus

The MBC of `CCCCCCOc1c(OC)cc(NC(C)CCCNC(=O)C(N)Cc2ccccc2)c2nc(C(C)(C)C)ccc12` (centres unmarked) is reported as 20 µg/mL (≈ 35.5 µM) (microbial killing; ATCC33591 MRSA; drug-resistant strain).
With `CC[C@H](C)[C@H](NC(=O)CNC(=O)[C@H](CCC(=O)O)NC(=O)[C@H](CO)NC(=O)[C@@H](NC(=O)[C@H](CCCNC(=N)N)NC(=O)[C@H](CCCCN)NC(=O)[C@H](CCCCN)NC(=O)[C@H](C)NC(=O)[C@H](CO)NC(=O)[C@H](CC(N)=O)NC(=O)[C@H](CCC(=O)O)NC(=O)[C@H](CC(C)C)NC(=O)[C@H](CCCCN)NC(=O)[C@H](CCCCN)NC(=O)[C@H](C)NC(=O)[C@@H](NC(=O)[C@H](CCCCN)NC(=O)[C@H](CO)NC(=O)[C@H](CC(C)C)NC(=O)[C@H](Cc1c[nH]c2ccccc12)NC(=O)[C@@H](N)CO)[C@@H](C)O)[C@@H](C)CC)C(=O)N[C@@H](C)C(=O)N[C@H](C(=O)N[C@@H](C)C(=O)N[C@H](C(=O)N[C@@H](CCC(N)=O)C(=O)NCC(=O)NCC(=O)N1CCC[C@H]1C(=O)N[C@@H](CCCNC(=N)N)C(=O)O)[C@@H](C)CC)[C@@H](C)CC` the MIC range was 16 to 64 µg/mL (≈ 4.79 to 19.2 µM) (broth microdilution; methicillin-resistant clinical isolates, Mueller-Hinton broth; 18 h, 35 °C).
For `Myristoyl-FCPRRYKQIGTGLPGTKCK (disulfide 2-18 (inferred)) (N-myristoyl, disulfide; Myristoyl = CCCCCCCCCCCCCC(=O)*)`, antibacterial activity read “inhibited” (ATCC 8530; MBC, 2 h, pH 7.4, 37 °C, added: E. coli K-235 LPS at peptide:LPS 1:5 w/w).
`CCCCCOc1c(OC)cc(NC(C)CCCNC(=O)C(N)C(C)CC)c2nc(C(C)(C)C)ccc12` (centres unmarked) has an IC50 of 5.46 µg/mL (≈ 10.6 µM) (microbial growth; ATCC33591 MRSA; drug-resistant strain).
The MBEC of `CC[C@H](C)[C@H](NC(=O)[C@@H](NC(=O)CN)C(C)C)C(=O)N[C@@H](Cc1ccccc1)C(=O)N[C@@H](CC(N)=O)C(=O)N[C@@H](C)C(=O)N[C@@H](CC(C)C)C(=O)N[C@@H](CCCCN)C(=O)NCC(=O)N[C@H](C(=O)N[C@@H](C)C(=O)N[C@@H](CCCCN)C(=O)N[C@H](C(=O)N[C@H](C(=O)N[C@@H](C)C(=O)N[C@@H](C)C(=O)N[C@@H](CCC(N)=O)C(=O)N[C@@H](CC(C)C)C(=O)N[C@@H](CC(C)C)C(=O)N[C@@H](CCCCN)C(=O)N[C@@H](CCCCN)C(N)=O)C(C)C)[C@@H](C)O)C(C)C` is reported as 256 µM (persister cells in biofilm; MRSA ATCC BAA-1707; added: vancomycin 4 µg/mL).
The ED50 of `eremomycin pyrrolidide` is reported as 0.8 mg/kg (10, female SHK mice, sepsis; intravenous, 30 min after infection, 10 days observation).
The EC50 of `CC(C)C[C@H](NC(=O)[C@H](Cc1c[nH]c2ccccc12)NC(=O)[C@H](CCCNC(=N)N)NC(=O)[C@@H](N)Cc1ccccc1)C(=O)N[C@@H](CCCNC(=N)N)C(=O)N[C@@H](CCCCN)C(=O)N[C@@H](Cc1c[nH]c2ccccc12)C(=O)N[C@@H](Cc1ccccc1)C(=O)N[C@@H](CCCNC(=N)N)C(=O)N[C@@H](CCCNC(=N)N)C(=O)O` is reported as 2.2 µg/mL (≈ 1.42 µM) (bacterial killing, colony count; ATCC 12600; 1 h, pH 7, 37 °C).
`CC[C@H](C)[C@H](NC(=O)[C@H](CCCCN)NC(=O)[C@H](CCC(=O)O)NC(=O)[C@H](CCCCN)NC(=O)[C@H](CO)NC(=O)[C@H](CCCCN)NC(=O)[C@H](CCCNC(=N)N)NC(=O)[C@H](Cc1ccccc1)NC(=O)[C@H](Cc1ccccc1)NC(=O)[C@H](CC(=O)O)NC(=O)CNC(=O)[C@H](CC(C)C)NC(=O)[C@@H](N)CC(C)C)C(=O)NCC(=O)N[C@@H](CCCCN)C(=O)N[C@@H](CCC(=O)O)C(=O)N[C@@H](Cc1ccccc1)C(=O)N[C@@H](CCCCN)C(=O)N[C@@H](CCCNC(=N)N)C(=O)N[C@H](C(=O)N[C@H](C(=O)N[C@@H](CCC(N)=O)C(=O)N[C@@H](CCCNC(=N)N)C(=O)N[C@H](C(=O)N[C@@H](CCCCN)C(=O)N[C@@H](CC(=O)O)C(=O)N[C@@H](Cc1ccccc1)C(=O)N[C@@H](CC(C)C)C(=O)N[C@@H](CCCNC(=N)N)C(=O)N[C@@H](CC(N)=O)C(=O)N[C@@H](CC(C)C)C(=O)N[C@H](C(=O)N1CCC[C@H]1C(=O)N[C@@H](CCCNC(=N)N)C(=O)N[C@H](C(=O)N[C@@H](CCC(=O)O)C(=O)N[C@@H](CO)C(=O)O)[C@@H](C)O)C(C)C)[C@@H](C)CC)C(C)C)[C@@H](C)CC` gave an MIC ratio of 2 fold (JE2 SAUSA300_1865 vraR transposon mutant; 12.5% TSB; relative to: wild type over mutant).
